Measured values from different studies.
A part holds a random share of what one study measured. Changes are numbered by the printed parent chain.

Sample 1 — technique: protein binding microarray; molecule type: double-stranded DNA, one strand shown; sample: in vitro; tested at: not given; baseline: not given; direction: higher = stronger binding
Target: Histone acetyltransferase KAT6A, both winged helices, GST fusion (KAT6A, Homo sapiens, UniProt Q92794, residues 1-181)
Setting: 8-mer, flanks averaged, mean of 2 arrays, mostly near background
Residues (chain): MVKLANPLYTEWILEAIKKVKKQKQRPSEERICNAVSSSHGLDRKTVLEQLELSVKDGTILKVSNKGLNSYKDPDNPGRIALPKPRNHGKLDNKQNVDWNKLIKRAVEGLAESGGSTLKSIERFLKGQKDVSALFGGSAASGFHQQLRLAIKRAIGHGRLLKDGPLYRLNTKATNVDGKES
Sequence | E-score
AAGCCCGA | 0.0251
TATAGACA | -0.186
TACTTTGA | -0.118
ACGTAGCC | 0.041
GGATGCTA | -0.108
GGAGCGTA | 0.107
AGAGAATG | -0.141
AGATTCGG | -0.0835
GGCTTCAA | -0.0169
ATGTAGAA | -0.12
CGCGAGCA | 0.126
AGATTAAG | -0.101
AGTCATTC | -0.148
ACGCAAGT | 0.0719
CCACGAAG | -0.0881
AACAGTGA | -0.0548
AGGATTCA | -0.153
AAGGATTG | -0.096
AATTATCT | -0.0947

Sample 2 — technique: RNA Bind-n-Seq; molecule type: RNA; sample: in vitro; tested at: 200 nM; setting: whole 134-nt RNA, ends assumed; together with: 150 mM KCl; baseline: input library; direction: higher = stronger binding
Target: Fragile X messenger ribonucleoprotein 1, C-terminal low-complexity region (Fmr1, Mus musculus, UniProt P35922)
Constant ends, left off below: GGGAGUUCUACAGUCCGACGAUC … UGGAAUUCUCGGGUGUCAAGG
Sequence | log2 enrichment
GCAGGAAGUAAAAACAAAUGGAAAUGCUUCGGAUAGUGGCAGGGGUGGGGGUUGCUAAGGAAAGGGUGGGAUGGGAGUAGGUAAAGAGUU | 0.0242
CAAGUCCUGUGCUACACAUCGUAUGUACCGAAUCGGUUUGGGUUUGGGGUUUGGGGAAAGUAUUAUGUUACGCCGUUCGGAUCUGCACUU | -0.0635
UAACUUUAGAGGAGGAUCUGAUGGAUAUGGCAGUGGACGUGGAUUUGGGGAUGGCUAUAAGGGGUAUGGAGGAGGACCUGGAGGUGGCAA | 0.294
AAGUCCUGUGCUACACAUCGUAUGUACCGAAUCGGUUUGGUUUUUUUGGAAAAAGGAAAGUAUUAUGUUACGCCGUUCGGAUCUGCACUU | -0.887
UUGCGGCAGCCGCCCCCUUCUGCGCGGUCACGCCGAGCCAGCGCCUGGGCCUGGAACCGGGCCGUAGCCCCCCCAGUUUCGCCCACCACC | -0.139
CUGUGCUACACAUCGUAUGUACCGAAUCGGGGUUUUUGGGGUUUUUUUGGGGAAAAAGGGGAAAGUAUUAUGUUACGCCGUUCGGAUCUG | -0.127
AAGUCCUGUGCUACACAUCGUAUGUACCGAAUCGGGAGGGAAAAAGGGAAAAAGGGAAAGUAUUAUGUUACGCCGUUCGGAUCUGCACUU | 0.346
GCAGGAAGUAAAAACAAAUGGAACUGCUUCGGAUAGUGGCAGGGGUGGGGGUUGCUAAGGAAAGGGUGGGAUGGGAGUGGGUAAAGAGUU | 0.0601
AGUCCUGUGCUACACAUCGUAUGUACCGAAUCAAACCCCCCCAAAUUUAAACCCAAAAAAGUAUUAUGUUACGCCGUUCGGAUCUGCACU | -0.0612
UAACUUUAGAGGAGGAUCUGAUGGAUAUGGCAGUGGACGUGGAUUUGGGGAUGGCUAUAAUGGGUAUGAAGGAGGACCUGGAGGUGGCAA | 0.18
ACCAUGCAGGUGGGCAUCUUUGGGAAGUGGGGCAAGGGGGGGAUAGGGAGGGGGGUGACACUUUGGGAACAGGUGGUCCCAGGUCGUUUC | 0.574
CACAGACAACACGCACCCACACAGACACAGAGGGAAGGGGUUGGGAUGGGGACAGGGUGCACAGCAGGGCGGGUUAGGACCCCAGCCCCU | 1.33
AGUCCUGUGCUACACAUCGUAUGUACCGAAUCGGGAAAAAAAGGGUGGGAAAAAGGGAAAGUAUUAUGUUACGCCGUUCGGAUCUGCACU | 0.341
ACCAUGCAGGUGGGCAUCUUUGGGAAGUGGGGCAAGGGGGGGAUAGGGAGGGGGGUAACACUUUGGGAACAGGUAAACCCAGGUCGUUUC | 0.528

Sample 3 — technique: DHFR PCA, deep sequencing; sample: yeast; together with: (+)-ABA 710 µM; baseline: wild-type fitted maximum; direction: higher = stronger binding
Target: ABI1, truncated, D143A, DHFR fusion (Arabidopsis thaliana)
Setting: methotrexate growth selection, single substitutions
Starting sequence: PYL1, truncated, DHFR fusion (Arabidopsis thaliana); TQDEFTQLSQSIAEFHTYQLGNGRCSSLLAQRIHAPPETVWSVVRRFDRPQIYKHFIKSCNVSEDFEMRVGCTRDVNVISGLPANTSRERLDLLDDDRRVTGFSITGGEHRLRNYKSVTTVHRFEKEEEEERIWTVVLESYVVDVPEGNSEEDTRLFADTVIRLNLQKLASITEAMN; partner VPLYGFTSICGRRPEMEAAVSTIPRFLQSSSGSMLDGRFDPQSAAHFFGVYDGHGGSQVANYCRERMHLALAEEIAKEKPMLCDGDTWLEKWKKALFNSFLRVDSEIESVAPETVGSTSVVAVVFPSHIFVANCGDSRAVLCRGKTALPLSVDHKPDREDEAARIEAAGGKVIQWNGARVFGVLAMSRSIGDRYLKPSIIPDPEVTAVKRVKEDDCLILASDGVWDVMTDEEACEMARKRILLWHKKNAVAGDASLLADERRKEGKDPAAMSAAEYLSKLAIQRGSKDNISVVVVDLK
Substitution | relative binding score [%]
F124E | 107
L112Y | 44.2
K58Y | 96
E4R | 92.5
S27I | -0.0214
E151H | 101
N61K | 104
L20N | 102
E127T | 108
C25I | 101
A170S | 94.2
E139P | 1.78
L93F | 99.6
L93D | 77.7
H122A | 66.8
F56P | 21.6

Sample 4 — technique: RNA Bind-n-Seq; molecule type: RNA; sample: in vitro; tested at: 365 nM; baseline: no-protein control; direction: higher = stronger binding
Target: RNA binding protein fox-1 homolog 2, RRM domain, GST-SBP tag (RBFOX2, Homo sapiens, UniProt O43251-10, residues 100-194)
Setting: natural RNA segment, single round, ends assumed
Constant ends, left off below: GGGAGUUCUACAGUCCGACGAUC … UGGAAUUCUCGGGUGCCAA
Construct (chain): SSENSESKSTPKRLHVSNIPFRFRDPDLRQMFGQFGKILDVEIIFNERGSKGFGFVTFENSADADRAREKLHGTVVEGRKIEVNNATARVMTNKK
Sequence | RBNS enrichment (R)
UCUUUUGAUUCCUCUUGGGCUGAAGCAGACCAAGUUCCCCCCAGGCACCCCAGUUGUGGGGGAGCCUGUAUUUUUUUUAACAACAUCCCCAUUCCCCACCUGGUCCUCCC | 0.598
AUUUGUUUUUCUUAUCCAAGUAAAGAUGUCAAUAGGAAUUGCAUUAGUCCAAGGCCUUUUUCAUAAACUGAGCCUCUUUUCAAUUAUUUCAAUGGGACAGGAACUAGGAU | 0.337
UUACUAUAUAGUUGAAGAUGGCCUUGACCUCCUGACCCCUGCCUCAGCCAUGCCUGGCUAGGACAGCCAAAUUGUUGUUGUUUCAAGUCUGGUUUCAUUUGCUUCCCUGC | 0.557
CCUGUGAGGGCCUGAAGCUGGGCCAGGGCCCGUCGCAGCGGAGCCCCCUCUCAGCAGCCCACCGGGUCCCUCCAGGCUGCUGCCCGUGCGUGGUCUUUCUCCUCCUUUUC | 0.307
CAUCCCUAGCACCACAGAGCAGGGAGGGGACACAGAUUUAGGAGAGAUUUGUCUUUUUCUCCUUUGGCUGUGUGUUGUCCAGGGAUAUAUAUUUCCUAAAAUCUUUUUAA | 0.407
ACCAGGAGAACCACUACAUGCAACUCACGCCCCUUGCCCUAUCACAGGGUUGGGCCUAGACGGAGUCCCCUGCAAUUAGCUUUCUAGGAUCUACCACACUUCUGUGAAAG | 0.282
UGGCUCUUCACAAUCCAUAGGCUUGAAUCUGCAACCUAGUGUAAACUGCCUUGCUUUCCCCGGUUCUUUCCCCUGCUAGCACCUGCUUUCUCAUCCCUAUCUCCAGUCAA | 0.444
CCUACCAAAUAAAUAAAUAGUUUAUAAAAUGUAUUACUUAAGGUAUUAGCUGAGUUUAGAGUACUUUCUGCUUAAUUAAUUUUUAUACUUAACUCUUCAGUAGAGGUUUA | 0.744
GAUGGAAAAUGCAUAUCACUUGACAGUUGACAAGAAAGUGUCAUUUUUGUGUUAGUGUAUCAUAUAAUUGAAUUUGAACAAGAUACAUAUUUUUCUGCAUACAAAUUUAU | 1.28

Sample 5 — technique: protein-binding microarray; molecule type: double-stranded DNA, one strand shown; sample: in vitro; tested at: 940 nM top; setting: 60-bp whole probe; together with: salmon DNA 0.4 mg/ml; baseline: random background probes; direction: higher = stronger binding; constant ends, left off below: GCCTAGCAC … GTCTTGATTCGCTTGACGCTGCTG
Target: Interferon regulatory factor 5, full length, phosphomimetic (IRF5, Homo sapiens, UniProt Q13568-2, residues 1-514, S451D/S453D/S456D/S462D)
Sequence | fitted relative affinity
TTAGATTTCAATTTCGATTAGTGCTAG | 1.71 z-score
GACGGTATCGACCCTGGGGACGTGCTA | 2.96 z-score
TTAGAACTGACTTTCGATTAGTGCTAG | 3.27 z-score
CTCTTTCTCTGCTACCCTCTGGTGCTA | 2.39 z-score
GACGTTCTCGGTCTCGGGACGTGCTAG | 4.28 z-score
TCACGGCTCGTTATCCTACTGTGCTAG | 0.00365 z-score
TTAGATCCCAGACTGGATTAGTGCTAG | -0.507 z-score
GACGGTATCCTACTGCTGACGTGCTAG | -0.121 z-score
TTAGATCTCAGACTGCATTAGTGCTAG | -0.338 z-score
TTAGGTCTCCTTTTCCGTTAGTGCTAG | 0.902 z-score
TCAATTCTCAACCCTGGTACTGTGCTA | 1.11 z-score
TTAGATTTCGGGACTGGTTTAGTGCTA | 0.755 z-score
TCACATACTAATTTCCAACTGTGCTAG | 0.794 z-score
GACGGTATCGGCATCGGGACGTGCTAG | 3.76 z-score
GACGGTATCGGTTTCGGGATGTGCTAG | 9.23 z-score
GACGGTATCGACTATGGGGACGTGCTA | 4.66 z-score

Some of these lines once more (sample 3):
Substitution | relative binding score [%]
A170S | 94.2
K58Y | 96
L93F | 99.6
L93D | 77.7
E127T | 108
F56P | 21.6
E4R | 92.5
H122A | 66.8
